Experimental data collected from several papers.
Numbered parts are unrelated; each lists some results of a single study.

Block 1
Target: Interferon regulatory factor 7, full length, phosphomimetic (IRF7, Homo sapiens, UniProt Q92985, residues 1-503, S471D/S472D/S475D/S476D/S477D/S483D/S484D/S487D)
Technique: protein-binding microarray
Molecule type: double-stranded DNA, one strand shown
Matrix: in vitro
Concentration: 2200 nM top
Setting: 60-bp whole probe
Added: salmon DNA 0.4 mg/ml
Relative to: random background probes
Reading: higher = stronger binding
Residues (chain): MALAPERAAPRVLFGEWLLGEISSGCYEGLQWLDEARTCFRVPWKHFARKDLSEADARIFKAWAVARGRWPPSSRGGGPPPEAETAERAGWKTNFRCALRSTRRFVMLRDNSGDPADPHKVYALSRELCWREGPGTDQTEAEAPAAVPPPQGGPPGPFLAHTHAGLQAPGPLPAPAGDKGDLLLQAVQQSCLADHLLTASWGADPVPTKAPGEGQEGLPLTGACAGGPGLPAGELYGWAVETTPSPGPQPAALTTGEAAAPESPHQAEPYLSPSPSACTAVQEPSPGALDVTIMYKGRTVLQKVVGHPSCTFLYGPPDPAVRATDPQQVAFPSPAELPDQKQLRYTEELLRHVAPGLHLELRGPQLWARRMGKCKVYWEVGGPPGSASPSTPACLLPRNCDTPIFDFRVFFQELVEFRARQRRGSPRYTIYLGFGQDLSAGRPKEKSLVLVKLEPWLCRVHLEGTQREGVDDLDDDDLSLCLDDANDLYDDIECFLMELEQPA
Sequence | fitted relative affinity [z-score]
GCCTAGCACTTAGTTATCGGTATCGGTTAGTGCTAGGTCTTGATTCGCTTGACGCTGCTG | 1.66
GCCTAGCACTTAGAACTGAGTTCCGATTAGTGCTAGGTCTTGATTCGCTTGACGCTGCTG | 0.00256
GCCTAGCACTTAGGTTTCCTCCTGCTTTAGTGCTAGGTCTTGATTCGCTTGACGCTGCTG | 1.94
GCCTAGCACTTAGGTATCCTTTTGCTTTAGTGCTAGGTCTTGATTCGCTTGACGCTGCTG | 1.72

Block 2
Target: Protein max, full length (MAX, Homo sapiens, UniProt P61244-2, residues 1-151)
Technique: protein-binding microarray
Molecule type: double-stranded DNA, one strand shown
Matrix: in vitro
Concentration: not given
Setting: k-mer, scored over probes, only values ≥0.25
Reading: higher = stronger binding
Sequence | E-score
ACCATGAG | 0.377
ATCGTGCC | 0.254
GACCATGC | 0.44
CCCTCACG | 0.287
CACATGAG | 0.411

Block 3
Target: Histone acetyltransferase KAT6A, winged helix 1, GST fusion (KAT6A, Homo sapiens, UniProt Q92794, residues 1-85)
Technique: protein binding microarray
Molecule type: double-stranded DNA, one strand shown
Matrix: in vitro
Concentration: not given
Setting: 8-mer, flanks averaged, mean of 2 arrays, mostly near background
Relative to: not given
Reading: higher = stronger binding
Construct (chain): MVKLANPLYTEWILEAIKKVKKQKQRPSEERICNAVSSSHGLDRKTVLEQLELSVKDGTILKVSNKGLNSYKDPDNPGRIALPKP
Sequence | E-score
CAGAGAGA | -0.26
CCAATCCA | -0.229
CCTCGCAC | 0.127
GGACTCCA | -0.0425
AAGGCTCT | -0.0542

Other studies, line by line
Substance | target | assay | test system | setting | how to read | endpoint | result
PhoQ, residues 284 288 289 292 302 303 AGGCYF | PhoP, residues 12 14 15 18 19 LFHKL (Escherichia coli, UniProt P23836) | Sort-seq, refers to: YFP reporter | E. coli | PhoQ-PhoP variant library, added: 10 µM Mg2+ | relative to: high Mg2+ state, higher = stronger signaling | fold induction | 9.77
